Experimental data of several laboratories.
Each line is one published result; not all experiments were run side by side. ± gives the spread as reported.
Cell line: HeLa

| SMILES | assay | conditions | IC50 |
| --- | --- | --- | --- |
| C#CCN(CC(=O)O[C@H]1[C@H](C)O[C@@H](O[C@H]2[C@H](N(C)C)[C@@H](O)[C@H](O[C@H]3[C@@H](CC=O)C[C@@H](C)[C@@H](O[C@H]4CC[C@H](N(C)C)[C@@H](C)O4)/C=C/C=C/C[C@@H](C)OC(=O)C[C@@H](O)[C@@H]3OC)O[C@@H]2C)C[C@@]1(C)O)C(=O)c1ccc(C(F)(F)F)cc1 | cell growth or viability, CCK-8 | 72 h | 1.24 µM |
| [Cl][Pd-]1([Cl])[S]C(Nc2ccccc2)=N[N+]1=Cc1cccs1 | cell growth or viability | – | 22 µM |
| FC(F)(F)c1ccc(CNc2nc(NCc3ccccc3)c3ccccc3n2)cc1 | ODD-Luc degradation | p97-independent substrate | 15 ± 3 µM |
| CCC(C(=O)O)C1(O)CCCCC1 (centres unmarked) | cell growth or viability | 72 h | > 200 µM |
| CCCCCCCC[P+](c1ccc(C)cc1)(c1ccc(C)cc1)c1ccc(C)cc1 | cell growth or viability, resazurin | 72 h | 0.3 µM |
| CCc1ccc([C@H](C)CC(=O)N[C@@H]2O[C@H](CO)[C@@H](O)[C@H](O)[C@H]2O)cc1 | cell growth or viability | 96 h | > 250 µM |
| Cc1cc(C#N)cc(C)c1Oc1cc(Nc2ccc(C#N)cc2)nc2ccncc12 | – | 48 h | > 128 µM |
| CC(=O)O[C@H]1C[C@H](O[C@H]2[C@@H](O)C[C@H](O[C@H]3[C@@H](O)C[C@H](O[C@H]4CC[C@@]5(C)[C@H](CC[C@@H]6[C@@H]5CC[C@]5(C)[C@@H](C7=CC(=O)OC7)CC[C@]65O)C4)O[C@@H]3C)O[C@@H]2C)O[C@H](C)[C@H]1O[C@@H]1O[C@H](CO)[C@@H](O[C@@H]2O[C@H](CO)[C@@H](O)[C@H](O)[C@H]2O)[C@H](O)[C@H]1O | cell growth or viability, MTT | 48 h | 0.07 µM |
| COc1ccc(-c2nnc(-c3ccccn3)[nH]2)cc1OC.COc1ccc(-c2nnc(-c3ccccn3)[nH]2)cc1OC.[Cu+2].[O-][Cl+3]([O-])([O-])[O-].[O-][Cl+3]([O-])([O-])[O-] | cell growth or viability, MTT | 24 h | 94.7 µM |
| CCCC/C=N/NC(=O)c1cc2cc(Nc3nccc(-c4cccnc4)n3)ccc2[nH]1 | cell growth or viability, MTT | 48 h | > 20 µM |
| COc1ccc(CS(=O)(=O)c2ccc3ccccc3c2)cc1NCC(=O)O | cell growth or viability, MTS | 48 h | 0.112 µM |
| NC(=O)c1ccc(-c2ccccc2Cl)c2c3c([nH]c12)CCC(N)C3 (centres unmarked) | cell growth or viability | – | 0.015 µM |
| N#Cc1c(-c2ccc(Cl)cc2)cc(-c2cccc3ccccc23)nc1NNC(=O)Cc1ccccc1 | cell growth or viability, MTT | 72 h | 0.127 µM |
| Cc1cc(C#N)cc(C)c1Oc1cc(Nc2ccc(C#N)cn2)nc2cnccc12 | – | 48 h | > 127 µM |
| CC12CCC3c4ccc(OCCCOc5no[n+]([O-])c5S(=O)(=O)c5ccccc5)c(Br)c4CCC3C1CCC2O (centres unmarked) | cell proliferation, MTT | 48 h | 3.59 µM |
| CN1CCCNC(=O)CC2(CCCCC2)CC(=O)NCCCN(C)CCCNc2cccc3c2C(=O)c2cccc(c2C3=O)NCCC1 | cell growth or viability, CCK-8 | 48 h | 5.5 µM |
| C[C@@H]1CC[C@@H]([C@@](O)(COCc2ccccc2)Cn2cnc3ccccc32)[C@H](OCc2ccccc2)C1 | cell growth or viability, MTT | 72 h | 6.9 µM |
| CN(C)CCCO/N=C1/C=C2CCC3C(CC[C@]4(C)/C(=C/c5ccccn5)CCC34)[C@@]2(C)CC1 (some centres unmarked) | cell growth or viability, MTT | 72 h | > 100 µM |
| F[P-](F)(F)(F)(F)F.O=C(CCC(=O)[c-]1cccc1)NCCN(CC(=O)Nc1ccc(C#CCN(Cc2ccccn2)Cc2ccccn2)cc1)C(=O)CCc1cn(Cc2ccccc2)nn1.[C-]#[O+].[C-]#[O+].[C-]#[O+].[C-]#[O+].[C-]#[O+].[C-]#[O+].[Mn+].[Re+] | cell viability, resazurin | 48 h | 10.7 ± 1.3 µg/mL |
| COC(=O)[C@H](C(C)C)N(C)C(=O)[C@@H]1CCCN1C(=O)[C@H](C)N(C)C(=O)OC(C)(C)C | cell growth or viability, SRB | – | 22 µM |
| CC(C)(C)c1cc2c(O)c(c1)Cc1cc(C(C)(C)C)cc(c1OCC(=O)NCc1cccnc1)Cc1cc(C(C)(C)C)cc(c1O)Cc1cc(C(C)(C)C)cc(c1OCC(=O)NCc1cccnc1)COC2 | cell growth or viability, MTT | 72 h | 7.9 µM |
| O=c1[nH]c(=O)n([C@@H]2O[C@H](CSSc3ccccn3)[C@@H](O)[C@H](F)[C@H]2O)cc1F | cell growth or viability | – | 35 µM |
| S=c1n(-c2ccccc2)c2c3ccccc3nc3[n+]2[n]1[Ir-3]12([S]3)([c]3ccccc3-c3cccc[n+]31)[c]1ccccc1-c1cccc[n+]12 | cell viability, MTT | irradiation 450 nm, 15.5 mW/cm^2, 15 min | 0.015 ± 0.002 µM |
| COc1ccc(COC[C@](O)(CNCc2ccccc2)[C@@H]2CC[C@@H](C)C[C@H]2OCc2ccc(OC)cc2)cc1 | cell growth or viability, MTT | 72 h | 3.1 µM |
| COc1cc(CN2CCN(c3ccc(OC(F)(F)F)cc3)CC2)c2cc3[n+](cc2c1O)CCc1cc2c(cc1-3)OCO2 | cell growth or viability, SRB | 48 h | 5.64 µg/mL |

| SMILES | assay | conditions | IC50 |
| --- | --- | --- | --- |
| C=C1C(=O)OC2C=C(C)CCC=C(C(=O)OC(C)C(C)(O)C(=O)OC3C(OC(C)=O)C(C(=O)OC)=CCCC4(C)OC4C4OC(=O)C(=C)C34)CC(OC(=O)C(C)=CC)C12 (centres unmarked) | cell growth or viability | 48 h | 1.93 µM |
| CCCCCC(=O)O[C@H]1[C@H](C)O[C@@H](O[C@H]2[C@H](N(C)C)[C@@H](O)[C@H](O[C@H]3[C@@H](CC=O)C[C@@H](C)[C@@H](O[C@H]4CC[C@H](N(C)C)[C@@H](C)O4)/C=C/C=C/C[C@@H](C)OC(=O)C[C@@H](O)[C@@H]3OC)O[C@@H]2C)C[C@@]1(C)O | cell growth or viability, CCK-8 | 72 h | 23.7 µM |
| Cc1cn(CC(=O)N[C@@H](Cc2ccccc2)C(=O)N[C@@H](Cc2ccccc2)C(=O)N[C@@H](Cc2ccc(O)cc2)C(=O)O)c(=O)[nH]c1=O | – | – | > 500 µM |
| O=C(Cc1ccc(-c2ccc(OCCN3CCOCC3)cc2)cn1)NCc1ccccc1O | cell growth or viability, CCK-8 | 48 h | 2.1 µM |
| O=c1[nH]c(=O)n([C@@H]2O[C@H](CSSC[C@H]3O[C@@H](n4cc(F)c(=O)[nH]c4=O)[C@H](O)[C@@H](F)[C@@H]3O)[C@@H](O)[C@H](F)[C@H]2O)cc1F | cell growth or viability | – | 280 µM |
| O=[N+]([O-])[O-].[NH3+][Pt-2]1([NH3+])[O]C(C(F)(F)F)=CC(c2ccccc2)=[O+]1 (centres unmarked) | cell growth or viability, MTT | – | 3 µM |
| COc1cc(C2Oc3ccc(C=C4Oc5cc(O)ccc5C4=O)cc3OC2CO)cc(OC)c1O (centres unmarked) | cell growth or viability, MTT | 72 h | 54.7 µM |
| COc1cc(CN2CCN(c3ccc(Cl)cc3)CC2)c2cc3[n+](cc2c1O)CCc1cc2c(cc1-3)OCO2 | cell growth or viability, SRB | 48 h | 4.24 µg/mL |
| CCc1ccc([C@H](C)CC(=O)N[C@@H]2O[C@H](COC(C)=O)[C@@H](OC(C)=O)[C@H](OC(C)=O)[C@H]2OC(C)=O)cc1 | cell growth or viability | 96 h | ≥ 250 µM |
| COc1ccc(S(=O)(=O)Nc2ccc(CCCC(=O)O[C@H]3c4cc5c(cc4[C@@H](c4cc(OC)c(OC)c(OC)c4)[C@H]4C(=O)OC[C@@H]43)OCO5)cc2)cc1 | cell growth or viability, CCK-8 | 24 h | 40.8 µM |
| O=C(O[C@@H]1Cc2c(O)cc(O)cc2O[C@@H]1c1cc(O)c(O)c(O)c1)c1cc(O)c(O)c(O)c1 | cell growth or viability, CCK-8 | 24 h | 61.6 µM |
| COc1ccc(CNC(=O)Cc2ccc(-c3ccc(OCCN4CCOCC4)cc3)cn2)cc1 | cell growth or viability, CCK-8 | 48 h | 2 µM |
| C[C@@H]1CC[C@@H]([C@@](O)(CNCc2ccc(F)cc2)COCc2ccccc2)[C@H](OCc2ccccc2)C1 | cell growth or viability, MTT | 72 h | 2.5 µM |
| C[C@@H](NC(=O)Cc1ccc(-c2ccc(OCCN3CCOCC3)cc2)cn1)c1ccccc1 | cell growth or viability, CCK-8 | 48 h | > 4 µM |
| O=C(c1ccc[nH]1)c1ccccc1O | cell growth or viability, resazurin | 24 h | > 64 µg/mL |
| CO[C@@H]1[C@@H](O[C@@H]2O[C@H](C)[C@@H](O[C@H]3C[C@@](C)(O)[C@@H](OC(=O)Nc4ccc(C(F)(F)F)cc4)[C@H](C)O3)[C@H](N(C)C)[C@H]2O)[C@@H](CC=O)C[C@@H](C)[C@@H](O[C@H]2CC[C@H](N(C)C)[C@@H](C)O2)/C=C/C=C/C[C@@H](C)OC(=O)C[C@H]1O | cell growth or viability, CCK-8 | 72 h | 2.29 µM |
| CC(C)(C(=O)O)C1(O)c2ccccc2-c2ccccc21 | cell growth or viability | – | 99.1 µM |
| S=C(N/N=C/c1ccc(-c2ccccc2)s1)Nc1ccccc1 | cell growth or viability | – | 43 µM |
| O=C(NCc1ccccc1)Nc1ccc(-c2ccc(OCCN3CCOCC3)cc2)cn1 | cell growth or viability, CCK-8 | 48 h | 0.78 µM |
| CC(=O)OC[C@H]1O[C@@H](NC(=O)NC(=O)/C=C/c2ccc(C(C)C)cc2)[C@H](OC(C)=O)[C@@H](OC(C)=O)[C@@H]1OC(C)=O | cell growth or viability | 96 h | 44 µM |
| C=CCOC(=O)[C@]12CS[C@H](c3ccccc3)N1C(=O)/C(=C(\O)CCc1ccccc1)C2=O | cell growth or viability, resazurin | – | 7.81 µg/mL |
| COc1ccc2c(c1)OCc1c-2oc2cc3c(cc12)OCO3 | cell growth or viability, MTT | 72 h | 30.2 µM |
| CCCCCCCCCCCCCCOc1c(O)cc(C(=O)O[C@@H]2Cc3c(O)cc(O)cc3O[C@@H]2c2cc(O)c(O)c(O)c2)cc1O | cell growth or viability, CCK-8 | 24 h | 27.1 µM |
| CC(=O)OC[C@H]1O[C@@H](NC(=O)NC(=O)[C@@H](C)Cc2ccc(C(C)C)cc2)[C@H](OC(C)=O)[C@@H](OC(C)=O)[C@@H]1OC(C)=O | cell growth or viability | 96 h | 39 µM |
| C#CCN(CC(=O)O[C@H]1[C@H](C)O[C@@H](O[C@H]2[C@H](N(C)C)[C@@H](O)[C@H](O[C@H]3[C@@H](CC=O)C[C@@H](C)[C@@H](O[C@H]4CC[C@H](N(C)C)[C@@H](C)O4)/C=C/C=C/C[C@@H](C)OC(=O)C[C@@H](O)[C@@H]3OC)O[C@@H]2C)C[C@@]1(C)O)Cc1ccc(C(F)(F)F)cc1 | cell growth or viability, CCK-8 | 72 h | 2.16 µM |

For quick reference, copied from above:
| SMILES | assay | conditions | IC50 |
| --- | --- | --- | --- |
| CCCC/C=N/NC(=O)c1cc2cc(Nc3nccc(-c4cccnc4)n3)ccc2[nH]1 | cell growth or viability, MTT | 48 h | > 20 µM |
| COc1ccc(CS(=O)(=O)c2ccc3ccccc3c2)cc1NCC(=O)O | cell growth or viability, MTS | 48 h | 0.112 µM |
| NC(=O)c1ccc(-c2ccccc2Cl)c2c3c([nH]c12)CCC(N)C3 (centres unmarked) | cell growth or viability | – | 0.015 µM |
| N#Cc1c(-c2ccc(Cl)cc2)cc(-c2cccc3ccccc23)nc1NNC(=O)Cc1ccccc1 | cell growth or viability, MTT | 72 h | 0.127 µM |
